Assay results of several laboratories.
± gives the spread as reported.
F11: Coagulation factor XI (F11, Homo sapiens, UniProt P03951)
EPHX2: Bifunctional epoxide hydrolase 2 (EPHX2, Homo sapiens, UniProt P34913)
CHRM2: Muscarinic acetylcholine receptor M2 (CHRM2, Homo sapiens, UniProt P08172)

CCSc1nc2c([nH]1)c(=S)n(C)c(=S)n2C  remaining activity (Progesterone receptor (PGR, Homo sapiens, UniProt P06401); reporter gene, antagonist, MMTV-luciferase; T47D/A1-2; 10 µM, 24 h, together with: 5 nM progesterone; baseline: maximal activity): 123%
CCCCCCCCCc1nc2cc(Cl)ccc2c(=O)n1O  membrane dipole potential change (Staphylococcus aureus membranes; di-8-ANEPPS fluorescence ratio; 40 µM): increased
C=CC(=O)N1C[C@H](C)N(c2nc(OC[C@@]34CCCN3C[C@H](F)C4)nc3c(F)c(-c4ccc(F)c5sc(N)nc45)c(C(F)(F)F)cc23)C[C@H]1C  IC50 ratio (GTPase KRas, GTP; with RAF1 RBD (KRAS, Homo sapiens, UniProt P01116, G12C); RAF1 RBD binding, HTRF; baseline: GTP-bound over GppNHp-bound KRAS G12C): 30 fold
S=C(Nc1ccc(Cl)cc1)Nc1ccc(-c2nc3ccccc3s2)cc1  maximum ThT fluorescence (Alpha-synuclein (SNCA, Homo sapiens, UniProt P37840); fibril formation, ThT fluorescence kinetics; 100 µM, α-syn 2 µM, plateau phase; baseline: DMSO vehicle): 13 ± 1%
Cc1cc(-c2ccc(/N=N/c3ccc4c(S(=O)(=O)O)cc(S(=O)(=O)O)c(N)c4c3O)c(C)c2)ccc1/N=N/c1ccc2c(S(=O)(=O)O)cc(S(=O)(=O)O)c(N)c2c1O  Hill slope (F11; enzyme activity, inhibitor, FXIa chromogenic substrate hydrolysis; pH 7.4, 25–37 °C): 1.9 ± 0.3
CC12CC3CC(C)(C1)CC(NC(=O)Nc1ccc(C(=O)N4CCC(NC(=O)C5CC5)CC4)cc1)(C3)C2  lipophilic ligand efficiency (EPHX2): 6.33
[11CH3]Nc1ccc(-c2nc3ccc(O)cc3o2)cn1  distribution volume ratio (Amyloid-beta precursor protein (APP, Homo sapiens, UniProt P05067); binding, PET, reference Logan; Alzheimer's disease patients, grey matter; baseline: cerebellum): 1.47 ± 0.11
CC1=C(/C=C/C(C)=C/C=C/C(C)=C/C=O)C(C)(C)CCC1  slow time constant of inhibition (Cyclic nucleotide-gated channel alpha-1 (CNGA1, Bos taurus, UniProt Q00194); ion current, inhibitor, patch clamp; 200 nM, holding potential -50 mV, together with: cGMP 2 mM): 769 s
CC12CC3CC(C)(C1)CC(NC(=O)Nc1ccc(C(=O)N4CCC[C@H](C(N)=O)C4)cc1)(C3)C2  potency ratio (EPHX2; inhibitor, enzyme activity; baseline: S over R enantiomer): 2 fold
[3H]C([3H])([3H])c1cnccc1CN1C[C@@H](c2cc(F)c(F)c(F)c2)CC1=O  loss of specific binding (Synaptic vesicle glycoprotein 2A (SV2A, Homo sapiens, UniProt Q7L0J3); radioligand binding, saturation binding; human Alzheimer disease, frontal cortex P2 fraction; dose not given; baseline: control brains): ~41%
O=C(/C=C/c1ccc(Cl)cc1)N1CCC2(CC1)CN(Cc1ccc(Cl)c(Cl)c1)C(=O)O2  Schild slope (G-protein coupled receptor 183 (GPR183, Homo sapiens, UniProt P32249); GTPγS binding, antagonist; CHO membranes expressing EBI2): 1.4
O[C@H]1[C@H](O)[C@@H](O)[C@@H]2O[C@@H]2[C@@H]1O  Tm increase (Lysosomal acid glucosylceramidase (GBA1, Homo sapiens, UniProt P04062, R534H); thermal stability, tryptophan fluorescence; saturating, pH 5.2): 14.1 °C
CCCCCCCC(=O)Nc1ccc(OC)nc1C  specific activity (Cocaine esterase (CES2, Homo sapiens, UniProt O00748); substrate; 50 µM, pH 8, 37 °C, enzyme purity 4%): 33 pmol/min/µg
Cn1c(=S)c2[nH]c(SCCc3ccccc3)nc2n(C)c1=O  remaining activity (Glucocorticoid receptor (Nr3c1, Rattus norvegicus, UniProt P06536); reporter gene, antagonist, MMTV-luciferase; T47D/A1-2; 10 µM, 24 h, together with: 5 nM dexamethasone; baseline: maximal activity): 78%
Cc1ncsc1-c1ccc(CNC(=O)[C@@H]2C[C@@H](O)CN2C(=O)[C@@H](NC(=O)COCCOCCOCCNC(=O)C[C@@H]2N=C(c3ccc(Cl)cc3)c3c(sc(C)c3C)-n3c(C)nnc32)C(C)(C)C)cc1  ΔG (BRD4/VHL, BD2; with elongins B/C (Homo sapiens, UniProt O60885+P40337); ITC; Brd4^BD2, ternary): -22.2 ± 0.1 kcal/mol
CC[C@@]1(c2cccc(C(F)(F)F)c2)C2=C(Nc3n[nH]cc31)[C@H](F)C(C)(C)CC2=O (single isomer, unassigned)  target engagement (Glycogen synthase kinase-3 beta (Rattus norvegicus, UniProt P18266); kinobead chemoproteomics; P10 rat, brain; 60 mg/kg, 3 h post-dose at Cmax): 40%
CC1(C)CCN(Cc2ccc(C(=O)NC[C@]3(O)CCCN(c4cc(NCc5ccccc5)ncn4)C3)c(O)c2)CC1  remaining activity (Mast/stem cell growth factor receptor Kit (KIT, Homo sapiens, UniProt P10721); kinase activity, radiometric; 10 µM, together with: 10 µM ATP): 101%
[3H]CC([3H])C(=O)NC1CN(CCCCC2CCN(CC(=O)N3c4ccccc4NC(=O)c4ccccc43)CC2)CCN(CCCOc2nsnc2C2=CCCN(C)C2)C1 (stereo not shown)  koff (CHRM2; dissociation kinetics; CHO cell homogenates; 23 °C, together with: 6 at 1000-fold excess): 0.00025 ± 1.67e-05 s⁻¹
CNc1ccccc1C(=O)O[C@H]1C[C@H](n2cnc3c(N)ncnc32)O[C@@H]1COP(=O)(O)OP(=O)(O)O  dissociation rate constant (Unconventional myosin-Va (Gallus gallus, UniProt Q02440, D297C/G292C/I296C/S293C/V295G); stopped-flow FRET, linear fit intercept; 4 °C, together with: MgCl2 10 mM): 1 ± 0.21 s⁻¹
N=C(N)NCCC[C@H](NC(=O)[C@H](CC(=O)O)NC(=O)[C@@H]1CSCCC(=O)NCC(=O)N[C@@H](Cc2c[nH]cn2)C(=O)N[C@H](Cc2ccccc2)C(=O)N[C@@H](CCCNC(=N)N)C(=O)N[C@H](Cc2c[nH]c3ccccc23)C(=O)N1)C(=O)N[C@@H](Cc1ccccc1)C(=O)NCC(N)=O  activation (Melanocortin receptor 5 (MC5R, Homo sapiens, UniProt P33032); cAMP accumulation, agonist; HEK293 expressing MC5R; 10 µM; baseline: MT-II): 0%
N#CCCN1CCN(C(=S)c2ccc(-c3ccc(F)cc3)o2)CC1  Emax (Atrial natriuretic peptide receptor 2 (NPR2, Homo sapiens, UniProt P20594); HTRF, item: cGMP; HEK293 overexpressing GC-B; together with: subthreshold CNP; baseline: saturating CNP): 86%
CC[C@H](C)[C@H](NC(=O)CNC(C)=O)C(=O)N[C@@H](CCCNC(=N)N)C(=O)N[C@@H](CCC(=O)O)C(=O)N[C@@H](C)C(=O)N[C@H](C(=O)N[C@@H](CC(C)C)C(=O)N[C@@H](CCCNC(=N)N)C(=O)N[C@@H](C)C(=O)N[C@@H](Cc1c[nH]c2ccccc12)C(=O)N[C@@H](CCC(=O)O)C(=O)N[C@@H](CCCNC(=N)N)C(=O)N[C@@H](CCCNC(=N)N)C(=O)N[C@@H](Cc1ccc(O)cc1)C(=O)NCC(=O)N[C@@H](Cc1ccccc1)C(=O)N1CCC[C@H]1C(=O)N[C@@H](CCCNC(=N)N)C(=O)N1CCC[C@H]1C(=O)N[C@@H](CC(C)C)C(=O)N[C@@H](CCCNC(=N)N)C(=O)N[C@@H](CO)C(=O)N[C@@H](CCC(=O)O)C(N)=O)[C@@H](C)O  ΔH (Antirepressor protein CarS (carS, Myxococcus xanthus, UniProt Q06911); ITC; pH 7.5, 20 °C): -5.7 ± 0.05 kcal/mol
COc1cc(C(=O)NS(=O)(=O)c2ccc(C(F)(F)F)cc2)ccc1Cc1cn(C)c2ccc(NC(=O)OC3CCCC3)cc12  Hill coefficient (Tumor necrosis factor receptor superfamily member 1A, extracellular domain (Homo sapiens, UniProt P19438); binding, 19F NMR): 1.59
C=CCn1c(=O)c2ccccc2n2c(SCC(=O)Nc3ccc(NC(C)=O)cc3)nnc12  pA2 (CHRM2; ERK1/2 phosphorylation, antagonist; human cells; 3 µM, together with: [3H]NMS, iperoxo at EC80): 10.8 ± 0.18
CCCCCCCCCCCCCCCC(=O)OCC(CSC[C@H](N)C(=O)N[C@@H](CO)C(=O)N[C@@H](CCCCN)C(=O)N[C@@H](CCCCN)C(=O)N[C@@H](CCCCN)C(=O)N[C@@H](CCCCN)C(=O)NCCCCCC(=O)N[C@@H](CCCCN)C(=O)N[C@@H](CC(C)C)C(=O)N[C@H](C(=O)N[C@@H](Cc1ccccc1)C(=O)N[C@@H](Cc1ccccc1)C(=O)N[C@@H](Cc1ccc2ccccc2c1)C(=O)O)C(C)C)OC(=O)CCCCCCCCCCCCCCC (stereo partly shown)  half-life (Amyloid-beta precursor protein, fibrillar amyloid-beta (APP, Homo sapiens, UniProt P05067); fibril disruption, thioflavin T fluorescence; 50 µM, preformed fibrils 10 µM): 2 h
CCCCCCCCCCCCCCCOC(=O)/C=C/c1ccc(O)c(O)c1  cytosolic PKC alpha (Protein kinase C alpha type (PRKCA, Homo sapiens, UniProt P17252); membrane translocation, immunoblotting; MDA-MB-231; IC50, 30 min; baseline: untreated): 8.2 ± 0.9%
Cc1ccc(C(=O)Nc2ccc(CP(=O)(O)O)cc2CP(=O)(O)O)cc1NC(=O)c1cccc(NC(=O)Nc2cccc(C(=O)Nc3cc(C(=O)Nc4ccc(CP(=O)(O)O)cc4CP(=O)(O)O)ccc3C)c2)c1  Km (F11; enzyme activity, inhibitor; 100 µM, together with: S-2366 substrate): 280 ± 90 µM
CCCCCCCCOP(=O)(Cc1ccccc1)O[C@@H]1O[C@H](CO)[C@@H](O)[C@H](O)[C@H]1F (stereo partly shown)  inactivation rate constant (Lysosomal acid glucosylceramidase (GBA1, Homo sapiens, UniProt P04062); enzyme activity, irreversible inhibitor; pH 5.5, 37 °C, together with: 2,4-dinitrophenyl beta-D-glucopyranoside): 3.67 min⁻¹

Repeated from above:
C=CC(=O)N1C[C@H](C)N(c2nc(OC[C@@]34CCCN3C[C@H](F)C4)nc3c(F)c(-c4ccc(F)c5sc(N)nc45)c(C(F)(F)F)cc23)C[C@H]1C  IC50 ratio (GTPase KRas, GTP; with RAF1 RBD (KRAS, Homo sapiens, UniProt P01116, G12C); RAF1 RBD binding, HTRF; baseline: GTP-bound over GppNHp-bound KRAS G12C): 30 fold
CCCCCCCCCc1nc2cc(Cl)ccc2c(=O)n1O  membrane dipole potential change (Staphylococcus aureus membranes; di-8-ANEPPS fluorescence ratio; 40 µM): increased
CC12CC3CC(C)(C1)CC(NC(=O)Nc1ccc(C(=O)N4CCC[C@H](C(N)=O)C4)cc1)(C3)C2  potency ratio (EPHX2; inhibitor, enzyme activity; baseline: S over R enantiomer): 2 fold
